Measurements collected from several papers.
Several values in a cell are separate wells, animals, samples, runs or records. Numbers after ± are the reported error. Converted amounts (≈) assume the structure as drawn.

| SMILES | tested on | test | test system | conditions | scale | endpoint | value |
| --- | --- | --- | --- | --- | --- | --- | --- |
| CCN(CC)CCCC(C)Nc1ccnc2cc(Cl)ccc12 (centres unmarked) | Drosophila melanogaster | fluorescence | – | liquid food, 40 µg/mL, first instar larvae | reference: solvent | fluorescein ingestion | 15.5% |
| O=C(NCCN1CCCC1)c1cc(-c2ccc(CN3CCOCC3)cc2)nc2ccc(F)cc12 | Plasmodium berghei | parasite growth, luciferase bioluminescence | HepG2 spheroids infected | 24 h | – | EC20 | 0.38 nM |
| CNC(=O)c1cc(Oc2ccc(NC(=O)Nc3cc(C(F)(C(F)(F)F)C(F)(F)F)ccc3F)cc2)ccn1 | Drosophila melanogaster | – | ptc>dRet M955T | in food, concentration not given, 25 °C | – | rescue of viability | > 80% |
| C[C@@H](c1ncncc1F)[C@](O)(Cn1cncn1)c1ccc(F)cc1F | Blastomyces dermatitidis | – | BD-2 | – | – | MIC | ≤ 0.03 µg/mL |
| O=c1c(-c2cc(O)c(O)c(O)c2)coc2cc(O)c(O)c(O)c12 | Drosophila melanogaster | fluorescence | – | liquid food, 40 µg/mL, first instar larvae | reference: solvent | fluorescein ingestion | -20.3% |
| Cc1cc(OC(C)C)ccc1C(=O)C(C)(C)NC(=O)c1sccc1C | Botrytis cinerea | conidial germination | B05.10 | 0.1 µg/mL | – | inhibition | 16.5 ± 6.7% |
| Cc1ccc(-c2csc(CNC(=O)[C@H]3CCCN(C(=O)COCC(F)F)C3)n2)cn1 | Plasmodium falciparum | parasite growth, SYBR Green | 3D7, asexual blood stage | 72 h | – | EC50 | 3.5 ± 1.1 nM |
| Cc1cc2c(C(C)C)c(O)c(O)c(C=O)c2c(O)c1-c1c(C)cc2c(C(C)C)c(O)c(O)c(C=O)c2c1O | Drosophila melanogaster | fluorescence | – | liquid food, 40 µg/mL, first instar larvae | reference: solvent | fluorescein ingestion | -65.7% |
| CNC(=O)c1cc(Oc2ccc(NC(=O)Nc3cccc(F)c3)cc2)ccn1 | Drosophila melanogaster | – | ptc>dRet M955T | in food, concentration not given, 25 °C | – | rescue of viability | no effect |
| CNS(=O)(=O)c1ccccc1Nc1nc(Nc2ccc(N3CCOCC3)cc2OC)ncc1Br | Plasmodium falciparum | nanoluciferase readout | 3D7 Hyp1-Nluc | 20 µM, 72 h | reference: DMSO | parasite growth | 0.317% |
| CCc1nn(C)c2nc(-c3ccc(C(=O)O)cc3)nc(NCc3ccc(F)cc3)c12 | Cryptosporidium parvum | – | HCT-8 | EC50, 48 h | reference: DMSO control | parasite number | 37.8% and 52.1% and 43.2% and 37.4% |
| N#CC(=C1C=CC(=NOC(=O)c2ccccc2)C=C1)c1ccccc1 | Clavispora lusitaniae | broth dilution | ATCC 34449 | 48 h, 37 °C | – | MFC | 128 µg/mL (≈ 392 µM) |
| N[C@@H](CC(=O)O)C(=O)O | Drosophila melanogaster | fluorescence | – | liquid food, 40 µg/mL, first instar larvae | reference: solvent | fluorescein ingestion | 12.6% |
| CC(=O)NC[C@H]1CN(c2ccc(N3CCOCC3)c(F)c2)C(=O)O1 | Staphylococcus epidermidis | – | methicillin-resistant, 10 isolates | serum 0% | – | MIC50 | 1 µg/mL (≈ 2.96 µM) |
| Cc1ccc(C(C)C)c(OC2=C(Cl)C(=O)c3ccccc3C2=O)c1 | Serratia marcescens | – | MTCC 4301 | 10 µg/mL | – | zone of inhibition | 21 mm |
| C[C@](C#N)(COc1cc(C#N)ccc1C(F)(F)F)NC(=O)c1ccc(SC(F)(F)F)cc1 | Haemonchus contortus | – | – | 7 days | reference: IC50 MCF-10A over IC50 L4 development | selectivity ratio | 76.4 |
| N#Cc1ccc(-c2csc(CNC(=O)[C@H]3CCCN(C(=O)N4CCCC4)C3)n2)cc1 | Plasmodium falciparum | SYBR Green growth | asexual blood-stage parasites, 3D7 | 72 h | – | EC50 | 260 ± 38 nM |
| N=C(N)c1ccc(OCc2cc(COc3ccc(C(=N)N)cc3)cc(-c3ccccc3)c2)cc1 | Escherichia coli | checkerboard | mcr-2 polymyxin-resistant | concentration not given, 20 h, together with: rifampicin | – | MIC of compound in combination | 3.13 µg/mL |
| c1ccc(CCNC2CCCc3c2[nH]c2ccc(C4CCCCC4)cc32)cc1 (centres unmarked) | Mycolicibacterium smegmatis | cell growth | – | – | – | IC50 | no effect |
| O=C1C(Cl)=C(n2cncn2)C(=O)c2ccccc21 | Serratia marcescens | – | MTCC 4301 | 10 µg/mL | – | zone of inhibition | 15 mm |
| CN[C@H](CC(C)C)C(=O)N[C@H]1C(=O)N[C@@H](CC(N)=O)C(=O)N[C@H]2C(=O)N[C@H]3C(=O)N[C@H](C(=O)N[C@H](C(=O)O)c4cc(O)cc(O)c4-c4cc3ccc4O)[C@H](O)c3ccc(c(Cl)c3)Oc3cc2cc(c3O[C@@H]2O[C@H](CO)[C@@H](O)[C@H](O)[C@H]2O[C@H]2C[C@](C)(N)[C@H](O)[C@H](C)O2)Oc2ccc(cc2Cl)[C@H]1O | Staphylococcus epidermidis | broth microdilution | methicillin-susceptible isolates | – | – | MBC | 2 µg/mL (≈ 1.38 µM) |
| CC(=O)N[C@@H](CC(=O)O)C(=O)O | – | binding, MIDAS equilibrium dialysis LC-MS | A2AR-BRIL thermostabilized | concentration not given | reference: no-protein control | log2 fold change | -0.0919 |
| CNS(=O)(=O)c1ccccc1Nc1nc(Nc2cc(OC)c(OC)cc2C)ncc1Br | Plasmodium falciparum | invasion and early ring development | Hyp1-Nluc | 10 x growth EC50, 4 h | – | inhibition | 78.9% |
| O=C1NC(=O)C(c2ccccc2)(c2ccccc2)N1 | Drosophila melanogaster | fluorescence | – | liquid food, 40 µg/mL, first instar larvae | reference: solvent | fluorescein ingestion | 21% |

| SMILES | tested on | test | test system | conditions | scale | endpoint | value |
| --- | --- | --- | --- | --- | --- | --- | --- |
| COC(=O)[C@@H](NCc1cc2ccccc2nc1OCc1ccccc1)C(C)C | Pseudomonas aeruginosa | – | – | 4 µg/mL, together with: pentamidine 100 µM | reference: control | growth | 97.8% |
| COc1ccc(OCCCO)cc1-c1cn2cc(-c3nnc(NCCCCc4ccccc4)o3)ccc2n1 | Plasmodium falciparum | schizont egress, Nluc release | Hyp1-Nluc | 10 x growth EC50, 4 h | – | inhibition | 80.3% |
| COC(=O)[C@H](Cc1c[nH]c2ccccc12)NCc1cc2ccccc2nc1SC | Pseudomonas aeruginosa | – | – | 8 µg/mL, together with: pentamidine 100 µM | reference: control | growth | 72.2% |
| CC1(C)c2nc(-c3ccc(F)cc3)c(Nc3ccc(F)cc3)n2CCN1C(=O)CN | Plasmodium berghei | parasite growth, luciferase bioluminescence | HepG2 spheroids infected | 24 h | – | EC80 | 170 nM |
| COCC(=O)N1CCC[C@H](C(=O)NCc2nc(-c3ccc(OC)cc3)cs2)C1 | Plasmodium falciparum | SYBR Green growth | asexual blood-stage parasites, 3D7 | 72 h | – | EC50 | 31 ± 5 nM |
| CN(C)CCOC(c1ccccc1)c1ccccc1 | Drosophila melanogaster | fluorescence | – | liquid food, 40 µg/mL, first instar larvae | reference: solvent | fluorescein ingestion | 12.3% |
| CCOc1ccc(-c2csc(CNC(=O)[C@H]3CCCN(C(=O)COC)C3)n2)cc1 | Plasmodium falciparum | SYBR Green growth | asexual blood-stage parasites, 3D7 | 72 h | – | EC50 | 15 ± 1 nM |
| CC(=O)ON=C1C=CC(=C(C#N)c2ccccc2)C=C1 | Clavispora lusitaniae | broth dilution | ATCC 34449 | 48 h, 37 °C | – | MFC | 64 µg/mL (≈ 242 µM) |
| S=c1ccss1 | Drosophila melanogaster | liquid food feeding | – | 40 µg/mL, first instar larvae | reference: solvent | fluorescein ingestion | -31.4% |
| C[C@@H]1[C@H](O)[C@@H](C)/C=C/C=C/C=C/C=C/C=C/C=C/C=C/[C@H](O[C@@H]2O[C@H](C)[C@@H](O)[C@H](N)[C@@H]2O)C[C@@H]2O[C@](O)(C[C@@H](O)C[C@@H](O)[C@H](O)CC[C@@H](O)C[C@@H](O)CC(=O)O[C@H]1C)C[C@H](O)[C@H]2C(=O)O | Leishmania major | eosin vital stain | promastigote | 500 µg/mL, 48 h | – | antileishmanial activity | 96.9% and 97.3% and 99.1% |
| COc1ccc(C[C@H](NC(=O)[C@H](C)NC(=O)CN2CCOCC2)C(=O)N[C@@H](Cc2ccccc2)C(=O)C2(C)CO2)cc1 (stereo in doubt) | Plasmodium berghei | parasitaemia, 4-day suppression test | ANKA, infected BALB/c mice | intraperitoneal | – | ED50 | 6.52 mg/kg |
| COCC(=O)N1CCC[C@H](C(=O)NCc2nc(-c3ccccc3F)cs2)C1 | Plasmodium falciparum | SYBR Green growth | asexual blood-stage parasites, 3D7 | 72 h | – | EC50 | 200 ± 25 nM |
| Cc1cnnc(Nc2ccnc3ccc(-c4ccc(S(=O)(=O)N5CCOCC5)cc4)cc23)c1 | Plasmodium falciparum | parasite growth, SYBR Green | TM91C235 | – | – | EC50 | 1600 nM |
| CC(C)n1ncc2c(C(=O)NCC3(C)CNC3)cc(C3CC3)nc21 | coxsackievirus A16 | – | RD | 0.015 µM | – | cell protection | -0.665% and 0.665% |
| Nc1nc2c(ncn2[C@@H]2O[C@H](CO)[C@@H](O)[C@H]2O)c(=O)[nH]1 | – | binding, MIDAS equilibrium dialysis LC-MS | A2AR-BRIL thermostabilized | concentration not given | reference: no-protein control | log2 fold change | -0.0517 |
| COCC(=O)N1CCC[C@H](C(=O)NCc2nc(C3CCN(C)CC3)cs2)C1 | Plasmodium falciparum | SYBR Green growth | asexual blood-stage parasites, 3D7 | 72 h | – | EC50 | > 5000 nM |
| O=C(Nc1ccc(CNc2ncnc3ccccc23)cc1)c1ccc(Cl)c(F)c1 | Plasmodium falciparum | schizont egress, Nluc release | Hyp1-Nluc | 10 x growth EC50, 4 h | – | inhibition | 77.7% |
| N=C(N)c1ccc(OCc2cccc(COc3ccc(C(=N)N)cc3)c2)cc1 | Escherichia coli | checkerboard | mcr-1 polymyxin-resistant | concentration not given, 20 h, together with: rifampicin | – | MIC of compound in combination | 25 µg/mL |
| COc1cc2c(cc1OC)[C@@H]1C(=O)c3ccc4c(c3O[C@@H]1CO2)C=CC(C)(C)O4 | human adenovirus C5 | reporter virus | A549 | concentration not given, 72 h, highest dose, monotreatment | reference: untreated control | viral progeny production | 30% |
| O=C(NCc1nc(-c2ccc(C(F)(F)F)cc2)cs1)[C@H]1CCCN(C(=O)CO[C@H]2CCCNC2)C1 | Plasmodium falciparum | SYBR Green growth | asexual blood-stage parasites, 3D7 | 72 h | – | EC50 | 17 ± 8.4 nM |
| CN1CCN(CCCN2c3ccccc3Sc3ccc(C(F)(F)F)cc32)CC1 | Drosophila melanogaster | fluorescence | – | liquid food, 40 µg/mL, first instar larvae | reference: solvent | fluorescein ingestion | -15.8% |
| NCCCOCC(=O)N1CCC[C@H](C(=O)NCc2nc(-c3ccc(C4CC4)cc3)cs2)C1 | Plasmodium falciparum | SYBR Green growth | asexual blood-stage parasites, 3D7 | 72 h | – | EC50 | 14 ± 4.8 nM |
| Nc1nc(-c2ccccc2)nc2[nH]nc(Nc3ccc(C(F)(F)F)cc3)c12 | coxsackievirus B3 | – | 31-1-93, NMRI mice, CVB3 chronic myocarditis | oral, 100 mg/kg twice daily, day 17, dosed days 1 to 7, score scale 0 to 7 | direction not given | clinical score | 0.11 |

A few entries again:
| SMILES | tested on | test | test system | conditions | scale | endpoint | value |
| --- | --- | --- | --- | --- | --- | --- | --- |
| COCC(=O)N1CCC[C@H](C(=O)NCc2nc(C3CCN(C)CC3)cs2)C1 | Plasmodium falciparum | SYBR Green growth | asexual blood-stage parasites, 3D7 | 72 h | – | EC50 | > 5000 nM |
| O=C(Nc1ccc(CNc2ncnc3ccccc23)cc1)c1ccc(Cl)c(F)c1 | Plasmodium falciparum | schizont egress, Nluc release | Hyp1-Nluc | 10 x growth EC50, 4 h | – | inhibition | 77.7% |
| N=C(N)c1ccc(OCc2cccc(COc3ccc(C(=N)N)cc3)c2)cc1 | Escherichia coli | checkerboard | mcr-1 polymyxin-resistant | concentration not given, 20 h, together with: rifampicin | – | MIC of compound in combination | 25 µg/mL |
| COc1cc2c(cc1OC)[C@@H]1C(=O)c3ccc4c(c3O[C@@H]1CO2)C=CC(C)(C)O4 | human adenovirus C5 | reporter virus | A549 | concentration not given, 72 h, highest dose, monotreatment | reference: untreated control | viral progeny production | 30% |
| O=C(NCc1nc(-c2ccc(C(F)(F)F)cc2)cs1)[C@H]1CCCN(C(=O)CO[C@H]2CCCNC2)C1 | Plasmodium falciparum | SYBR Green growth | asexual blood-stage parasites, 3D7 | 72 h | – | EC50 | 17 ± 8.4 nM |
| CN1CCN(CCCN2c3ccccc3Sc3ccc(C(F)(F)F)cc32)CC1 | Drosophila melanogaster | fluorescence | – | liquid food, 40 µg/mL, first instar larvae | reference: solvent | fluorescein ingestion | -15.8% |
| NCCCOCC(=O)N1CCC[C@H](C(=O)NCc2nc(-c3ccc(C4CC4)cc3)cs2)C1 | Plasmodium falciparum | SYBR Green growth | asexual blood-stage parasites, 3D7 | 72 h | – | EC50 | 14 ± 4.8 nM |
